Results collected from several papers.
Protocols differ between the studies behind these lines. ± marks the error that the study gave.

Compound	test	test system	setting	how to read	endpoint	result
CC[C@H](C)[C@H](NC(C)=O)C(=O)N[C@H]1CSSC[C@@H](C(=O)N(C)[C@H](C(N)=O)[C@@H](C)CC)NC(=O)[C@H](CCCNC(=N)N)NC(=O)[C@H](Cc2c[nH]cn2)NC(=O)[C@H](C)NC(=O)CN(C)C(=O)[C@H](Cc2c[nH]c3ccccc23)NC(=O)[C@H](CC(=O)O)NC(=O)[C@H](CCC(N)=O)NC(=O)[C@H](Cc2cn(C)c3ccccc23)NC(=O)[C@H](C(C)C)NC1=O	classical complement activation, ELISA C3b deposition	normal human plasma	hydrogen peroxide treated	reference: untreated peptide	IC50 ratio	< 2
Cc1ccc([C@@H]2O[C@H](CO)[C@@H](O)[C@H](O)[C@H]2O)cc1Cc1ccc(-c2ccc(F)cc2)s1	–	rabbit, STZ-nicotinamide type 2 diabetes, serum	dose not given, 28 days	–	serum ALP activity	168 ± 1.74 U/L
N=C(N)NCCC[C@@H](N)C(=O)NCC(=O)N[C@H](CCC(=O)O)C(=O)N[C@H](CCCNC(=N)N)C(=O)N1CCC[C@@H]1C(=O)N1CCC[C@@H]1C(=O)N[C@H](CCCNC(=N)N)C(N)=O	–	nude mouse A549 subcutaneous tumour	intravenous, 4 µmol/kg, 30 min, with: Evans blue 1 mg intravenous	reference: PBS control	Evans blue tumour permeation increase	46.4%
Cc1cc(O)c(C=O)c2c1C(=O)Oc1c(CO)c(O)c3c(c1O2)C(O)OC3=O (centres unmarked)	–	rat, male, streptozotocin-induced diabetes, testis	oral, 5 mg/kg, 9 weeks	–	relative organ weight	0.63 ± 0.03 g
CCCC[C@H](NC(=O)[C@@H](NC(=O)[C@H](CC(=O)O)NC(=O)[C@H](CCC(N)=O)NC(=O)[C@H](CC(C)C)NC(=O)[C@H](CC(C)C)NC(=O)[C@H](CCCN)NC(=O)[C@H](CCCNC(=N)N)NC(=O)[C@H](C)NC(=O)[C@H](CO)NC(=O)[C@H](CC(C)C)NC(=O)[C@H](CCC(N)=O)NC(=O)[C@H](CC)NC(=O)[C@H](CC(C)C)NC(=O)[C@@H](NC(=O)[C@H](CCCN)NC(=O)[C@H](CCCNC(=N)N)NC(=O)[C@H](Cc1ccc(O)cc1)NC(=O)[C@H](CO)NC(=O)[C@H](CCC(N)=O)NC(=O)[C@@H](NC(=O)[C@H](Cc1ccccc1)NC(=O)[C@@H](NC(=O)[C@H](C)NC(=O)[C@H](CC(=O)O)NC(=O)[C@H](C)NC(=O)CCc1ccc(O)cc1)[C@@H](C)CC)[C@@H](C)O)C(C)C)[C@@H](C)CC)C(=O)N[C@@H](CC(=O)O)C(=O)N[C@@H](CCCNC(=N)N)C(=O)NC	GH release	rat, male, serum	subcutaneous, dose not given, 15 and 30 min	reference: reference GHRH agonist JI-38	relative potency	1 to 4 fold
CC(C)CCC[C@@H](C)[C@H]1CC[C@H]2[C@@H]3CC=C4C[C@@H](OS(=O)(=O)O)CC[C@]4(C)[C@H]3CC[C@]12C	–	normal human plasma	37 °C, highest tested 3000 µM, with: thromboplastin-D	–	concentration doubling prothrombin time	> 3000 µM
CCCC[C@H](NC(=O)[C@@H](NC(=O)[C@H](CC(=O)O)NC(=O)[C@H](CCC(N)=O)NC(=O)[C@H](CC(C)C)NC(=O)[C@H](CC(C)C)NC(=O)[C@H](CCCN)NC(=O)[C@H](CCCNC(=N)N)NC(=O)[C@H](C)NC(=O)[C@H](CO)NC(=O)[C@H](CC(C)C)NC(=O)[C@H](CCC(N)=O)NC(=O)[C@H](CC)NC(=O)[C@H](CC(C)C)NC(=O)[C@@H](NC(=O)[C@H](CCCN)NC(=O)[C@H](CCCNC(=N)N)NC(=O)[C@H](Cc1ccc(O)cc1)NC(=O)[C@H](CO)NC(=O)[C@H](CC(N)=O)NC(=O)[C@@H](NC(=O)[C@H](Cc1c(F)c(F)c(F)c(F)c1F)NC(=O)[C@@H](NC(=O)[C@H](C)NC(=O)[C@H](CC(=O)O)NC(=O)[C@@H](C)NC(=O)CCc1ccc(O)cc1)[C@@H](C)CC)[C@@H](C)O)C(C)C)[C@@H](C)CC)C(=O)N[C@@H](CO)C(=O)N[C@@H](CCCNC(=N)N)C(=O)NCCCC(N)=O	GH release	rat, male, serum	subcutaneous, 3 µg/kg, 15 min	reference: reference GHRH agonist JI-38	relative potency	1.21
[2H]C([2H])([2H])C(c1cc2nnc(-c3cc(F)ccc3F)n2nc1OCc1ncnn1C)(C([2H])([2H])[2H])C([2H])([2H])[2H]	–	amygdala-kindled Wistar rats, amygdala	oral, 1 mg/kg, 2 h before stimulation	reference: baseline	afterdischarge duration change	-26%
C[C@H](N)C(=O)N1CCC[C@H]1C(=O)NCC(=O)NCC(=O)O	diketopiperazine formation, Arrhenius plot, ESI-MS	1-propanol	70, 80, 90 °C, 0.5% acetic acid	–	activation energy	82 ± 4 kJ/mol
Cc1cc2c(cc1C1(c3ncc(C(=O)O)cn3)CC1)C(C)(C)CCC2(C)C	RNA sequencing, refers to: Mta2	rat, brain	dose not given, 24 h	reference: vehicle	log2 fold change	-0.34
CCCC[C@H](NC(=O)[C@@H](NC(=O)[C@H](CC(=O)O)NC(=O)[C@H](CCC(N)=O)NC(=O)[C@H](CC(C)C)NC(=O)[C@H](CC(C)C)NC(=O)[C@H](CCCN)NC(=O)[C@H](CCCNC(=N)N)NC(=O)[C@H](C)NC(=O)[C@H](CO)NC(=O)[C@H](CC(C)C)NC(=O)[C@H](CCC(N)=O)NC(=O)[C@H](CC)NC(=O)[C@H](CC(C)C)NC(=O)[C@@H](NC(=O)[C@H](CCCN)NC(=O)[C@H](CCCNC(=N)N)NC(=O)[C@H](Cc1ccc(O)cc1)NC(=O)[C@H](CO)NC(=O)[C@H](CCC(N)=O)NC(=O)[C@@H](NC(=O)[C@H](Cc1ccccc1)NC(=O)[C@@H](NC(=O)[C@H](C)NC(=O)[C@H](CC(=O)O)NC(=O)[C@H](C)NC(=O)[C@H](Cc1ccc(O)cc1)NC)[C@@H](C)CC)[C@@H](C)O)C(C)C)[C@@H](C)CC)C(=O)N[C@@H](CC(=O)O)C(=O)NCCCCNC(=N)N	GH release	male rat, serum	subcutaneous, dose not given, 30 min	reference: GHRH(1-29)NH2	relative potency	151
Sc1nnc(-c2cc(Cl)ccc2Cl)o1	superoxide scavenging, pyrogallol	–	–	–	IC50	141.9 ± 1.2 µM
CC(=O)c1cnc(N)nc1N1CC[C@H]1c1nn2ccc(Cl)c2c(=O)n1-c1ccccc1	Th17 differentiation, refers to: IL-22	healthy donor whole blood	–	–	IC50	0.13 µM
O=c1cc(-c2ccc(O)cc2)oc2cc3oc4cc(O)c(O)cc4c3c(O)c12	ABTS scavenging, absorbance	–	–	–	EC50	3.18 mM
CCCC[C@H](NC(=O)[C@@H](NC(=O)[C@H](CC(=O)O)NC(=O)[C@H](CCC(N)=O)NC(=O)[C@H](CC(C)C)NC(=O)[C@H](CC(C)C)NC(=O)[C@H](CCCN)NC(=O)[C@H](CCCNC(=N)N)NC(=O)[C@H](C)NC(=O)[C@H](CO)NC(=O)[C@H](CC(C)C)NC(=O)[C@H](CCC(N)=O)NC(=O)[C@H](CC)NC(=O)[C@H](CC(C)C)NC(=O)[C@@H](NC(=O)[C@H](CCCN)NC(=O)[C@H](CCCNC(=N)N)NC(=O)[C@H](Cc1ccc(O)cc1)NC(=O)[C@H](CO)NC(=O)[C@H](CCC(N)=O)NC(=O)[C@@H](NC(=O)[C@H](Cc1ccccc1)NC(=O)[C@@H](NC(=O)[C@H](C)NC(=O)[C@H](CC(=O)O)NC(=O)[C@H](C)NC(=O)CCc1ccc(O)cc1)[C@@H](C)CC)[C@@H](C)O)C(C)C)[C@@H](C)CC)C(=O)N[C@@H](CC(=O)O)C(=O)N[C@@H](CCCNC(=N)N)C(=O)NCCCCC(N)=O	GH release	rat, male, serum	subcutaneous, dose not given, 15 and 30 min	reference: reference GHRH agonist JI-38	relative potency	1 to 4 fold
O=C1/C(=C/c2ccc(O)cc2)Oc2c1c(O)cc1oc3cc(O)c(O)cc3c21	ABTS scavenging, absorbance	–	–	–	EC50	2.62 mM
COc1c2c(cc3oc(CO)cc(=O)c13)O[C@H](C(C)(C)O)C2	analgesic effect	Kunming mouse, female	oral, 4 mg/kg, 0 h, 55 °C, before dosing, 30 s cut-off	–	hot plate latency	9 ± 1.17 s

Excerpt of the above:
Compound	test	test system	setting	how to read	endpoint	result
[2H]C([2H])([2H])C(c1cc2nnc(-c3cc(F)ccc3F)n2nc1OCc1ncnn1C)(C([2H])([2H])[2H])C([2H])([2H])[2H]	–	amygdala-kindled Wistar rats, amygdala	oral, 1 mg/kg, 2 h before stimulation	reference: baseline	afterdischarge duration change	-26%
Cc1cc2c(cc1C1(c3ncc(C(=O)O)cn3)CC1)C(C)(C)CCC2(C)C	RNA sequencing, refers to: Mta2	rat, brain	dose not given, 24 h	reference: vehicle	log2 fold change	-0.34
